{"data": "Experimental data pooled from the literature", "ALB": "Albumin (ALB, Bos taurus, UniProt P02769)", "T1": "dsDNA hairpin, hairpin; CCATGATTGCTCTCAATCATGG", "note": "Compare with care: the assays were run in different laboratories. ± marks the error that the study gave."}
{"SMILES": "CC(C)[C@H](NC(=O)[C@@H]1CCC(=O)NCCC(=O)NCCCC[C@H](NC(=O)[C@H](CCCCN)NC(=O)[C@@H](NC(=O)[C@H](Cc2c[nH]c3ccccc23)NC(=O)[C@@H]2CCCN2C(=O)[C@@H]2CCCN2C(=O)[C@H](Cc2ccccc2)NC(=O)[C@H](CO)NC(=O)CNC(=O)[C@@H](N)CS)C(C)C)C(=O)N[C@@H]([C@@H](C)O)C(=O)N1)C(=O)O", "target": "Disks large homolog 4, PDZ3 domain (Homo sapiens, UniProt P78352)", "test": "binding, surface plasmon resonance", "setting": "pH 7.5, 25 °C", "quantity": "kon", "result": "439000 M⁻¹ s⁻¹"}
{"SMILES": "CSCC[C@H](NC(=O)[C@H](CO)NC(=O)[C@@H](NC(=O)[C@H](CCC(N)=O)NC(=O)[C@@H](CCCNC(=N)N)NC(=O)[C@@H](CCCNC(=N)N)NC(=O)[C@@H](CCCCN)NC(=O)[C@@H](CCCNC(=N)N)NC(C)=O)[C@@H](C)O)C(=O)N[C@H](C(=O)N[C@@H](CC(=O)O)C(=O)N[C@@H](Cc1ccccc1)C(=O)N[C@@H](Cc1ccc(O)cc1)C(=O)N[C@@H](Cc1c[nH]cn1)C(=O)N[C@@H](CO)C(=O)N[C@H](CCCCN)C(=O)N[C@H](CCCNC(=N)N)C(=O)N[C@H](CCCNC(=N)N)C(N)=O)[C@@H](C)O", "target": "PCNA (Homo sapiens, UniProt P12004)", "test": "isothermal titration calorimetry", "setting": "concentration not given, pH 7.4, 25 °C, 200 mM NaCl, together with: p21 peptide", "quantity": "binding stoichiometry", "result": "0.6 ± 0.01"}
{"SMILES": "CCCCCCCCCCCC(=O)Nc1ccccc1SSc1ccccc1NC(=O)CCCCCCCCCCC", "target": "ALB", "test": "binding, van't Hoff", "setting": "concentration not given, 298-313 K", "quantity": "enthalpy change", "result": "-646 kJ/mol"}
{"SMILES": "Cc1cc(=O)oc2cc(NC(=O)CCCCCCC(=O)NO)ccc12", "target": "HDAC8 (Homo sapiens, UniProt Q9BY41)", "test": "ITC", "system": "Tris-HCl buffer", "setting": "concentration not given, pH 7.5, 25 °C", "quantity": "binding stoichiometry", "result": "0.8 ± 0.2"}
{"SMILES": "N=C(N)c1ccc(-c2ncc(-c3cnc(-c4ccc(C(=N)N)cc4)s3)s2)cc1", "target": "T1, dsDNA hairpin, hairpin", "test": "UV melting", "setting": "6 µM, pH 6.25, Na+ 100 mM", "scale": "reference: target alone, higher = more stabilisation", "quantity": "melting temperature shift", "result": "14.1 °C"}
{"SMILES": "CCCC[C@H](NC(=O)[C@@H](NC(=O)[C@@H](N)Cc1ccc(O)cc1)C(C)C)C(=O)NCC(=O)N[C@@H](Cc1c[nH]cn1)C(=O)N[C@@H](Cc1ccccc1)C(=O)N[C@@H](CCCNC(=N)N)C(=O)N[C@@H](Cc1c[nH]c2ccccc12)C(=O)N[C@@H](CC(=O)O)C(=O)N[C@@H](CCCNC(=N)N)C(=O)N[C@@H](Cc1ccccc1)C(=O)NCC(N)=O", "target": "MC4R (Homo sapiens, UniProt P32245)", "test": "agonist", "system": "HEK293", "setting": "10 µM", "scale": "reference: MT-II", "quantity": "cAMP accumulation", "result": "105%"}
{"SMILES": "C[C@@H](N)[C@H]1CC[C@H](C(=O)Nc2ccncc2)CC1", "target": "PRKCE (Homo sapiens, UniProt Q02156)", "test": "enzyme activity, inhibitor, radiometric", "setting": "10 µM", "quantity": "activity vs control", "result": "< 10%"}
{"SMILES": "COC(=O)c1cc(O)c2ccccc2c1O", "target": "PAK1 (Homo sapiens, UniProt Q13153, T423E)", "test": "inhibitor", "setting": "40 µM, 0.5 h", "quantity": "MBP phosphorylation", "result": "decreased"}
{"SMILES": "CC(=O)[O-].O.[Cu+2].[O-]c1ccc(Br)cc1C=NCCN1CCOCC1", "target": "ALB", "test": "binding, UV absorption titration, item: BSA band at 278 nm", "setting": "pH 7.2, 25 °C", "scale": "reference: free BSA", "quantity": "absorption band blue shift", "result": "6 nm"}
{"SMILES": "Cc1ccccc1-c1cc(N2CCN(C(=O)[C@@H](N)CCCNC(=N)N)CC2)ccc1N(C)C(=O)C(C)(C)c1cc(C(F)(F)F)cc(C(F)(F)F)c1", "target": "TACR1 (Homo sapiens, UniProt P25103)", "test": "antagonist, BRET", "system": "HEK293T", "setting": "10 µM, together with: substance P, added 5 min before", "quantity": "inhibition rate constant", "result": "0.21 ± 0.01 min⁻¹"}
{"SMILES": "CNc1ccccc1C(=O)O[C@H]1C[C@H](n2cnc3c(N)ncnc32)O[C@@H]1COP(=O)(O)OP(=O)(O)O", "target": "Unconventional myosin-Va (Gallus gallus, UniProt Q02440, D297C/G292C/I296C/S293C/V295G)", "test": "FRET", "system": "compound complex", "setting": "25 °C, together with: 4 mM EDTA", "quantity": "donor-acceptor distance", "result": "24.9 Å"}
{"SMILES": "C[n+]1cn(C2OC(COP(=O)(O)OP(=O)([O-])C(Cl)(Cl)P(=O)(O)O)C(O)C2O)c2nc(N)nc(O)c21 (stereo not drawn)", "target": "DCPS (Homo sapiens, UniProt Q96C86)", "test": "substrate, HPLC", "setting": "0.04 mM, 60 min, 37 °C", "quantity": "hydrolysis", "result": "1.1 ± 0.3%"}
